Published values from different studies.
A part holds a random share of what one study measured. Positions count from the first letter of the parent shown.

Series 1
Target: Prothrombin, mature alpha-thrombin (F2, Homo sapiens, UniProt P00734)
Technique: aptamer microarray, sandwich
Form: DNA with 2'F-ANA
Matrix: in vitro
Concentration: 200 nM
Notes: whole 15-mer aptamer, many near background
With: Cy3 exosite-II aptamer, 400 nM
Direction: higher = stronger binding
Measurement: mean fluorescence intensity
Oligonucleotide: GGTTGGTGTGGTTGG
2'F-ANA at 1 2 3 4 6 7 8 9 12 14: 70.3 a.u.
2'F-ANA at 2 5 6 7 8 9 10: 46.1 a.u.
2'F-ANA at 2 11 14 15: 127 a.u.
2'F-ANA at 2 4 5 6 7 8 13 14: 71.4 a.u.
2'F-ANA at 2 3 4 5 6 7 8 9 11: 611 a.u.
2'F-ANA at 1 5 9 14: 45.4 a.u.
2'F-ANA at 1 6 7 8 12 13 15: 353 a.u.
2'F-ANA at 2 7 8 10 11 13: 114 a.u.
2'F-ANA at 2 3 4 6 7 8 9 13 14 15: 206 a.u.
2'F-ANA at 2 4 5 9 10 13 14 15: 46.5 a.u.
2'F-ANA at 5 6 8 11 14: 55.8 a.u.
2'F-ANA at 2 3 4 6 7 12 14 15: 288 a.u.
2'F-ANA at 2 3 5 7 10 12 13 15: 58.4 a.u.
2'F-ANA at 1 3 4 7 8 9 10 12 14 15: 55.1 a.u.
2'F-ANA at 1 2 6 7 9 11 12 13 14: 58.8 a.u.
2'F-ANA at 3 5 6 8 11 12 13 14 15: 65.2 a.u.
2'F-ANA at 1 2 3 6 7 8 11 12 13 14 15: 86.2 a.u.
2'F-ANA at 2 4 8 14 15: 140 a.u.
2'F-ANA at 1 3 5 7 9 12 13 14: 48.7 a.u.
2'F-ANA at 3 4 6 7 10 11 12 15: 295 a.u.

Series 2
Target: FOS, bZIP domain (human)
Technique: DHFR protein complementation
Matrix: yeast
Notes: single substitutions, most at no-binding floor
Reference: wild-type JUN-FOS pair
Direction: higher = stronger binding
Measurement: binding fitness
Starting sequence: JUN, bZIP domain (human); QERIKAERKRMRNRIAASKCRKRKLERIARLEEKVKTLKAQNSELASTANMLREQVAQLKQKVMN; partner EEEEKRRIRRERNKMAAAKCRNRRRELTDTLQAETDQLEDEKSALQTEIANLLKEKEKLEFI
I28S: -0.319 natural log
A57N: 0.00623 natural log
E44K: -0.0388 natural log
V56H: -0.935 natural log
L52Q: -0.956 natural log
E54T: -0.165 natural log
A49P: -1.27 natural log
M51V: -0.0618 natural log
T48L: -0.0902 natural log
V35R: -0.116 natural log
T48Y: 0.0726 natural log
K34Y: -0.121 natural log
Q55C: -0.0765 natural log

Series 3
Target: RING finger protein unkempt homolog, zinc fingers 1-6, SBP tag (UNK, Homo sapiens, UniProt Q9C0B0, residues 30-357)
Sequence of UniProt Q9C0B0 (30-357, looked up): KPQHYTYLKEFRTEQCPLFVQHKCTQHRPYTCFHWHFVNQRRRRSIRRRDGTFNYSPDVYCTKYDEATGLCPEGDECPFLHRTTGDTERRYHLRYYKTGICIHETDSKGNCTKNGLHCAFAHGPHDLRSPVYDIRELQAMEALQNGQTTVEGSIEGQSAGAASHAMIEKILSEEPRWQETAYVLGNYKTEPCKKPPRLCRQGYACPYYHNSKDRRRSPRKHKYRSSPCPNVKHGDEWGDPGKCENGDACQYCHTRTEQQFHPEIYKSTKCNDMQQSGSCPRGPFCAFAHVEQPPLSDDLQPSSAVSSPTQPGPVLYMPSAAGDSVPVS
Technique: RNA Bind-n-Seq
Form: RNA
Matrix: in vitro
Concentration: 100 nM
Notes: RNA with constant flanks, vertebrate orthologous sites, ends assumed
Reference: input RNA pool
Direction: higher = stronger binding
Measurement: bound/input enrichment
Shared flanks, not repeated: GGGAGUUCUACAGUCCGACGAUC … CAACAGAGGAUUGAGCAUCA
AAGCCAUCUUUUCCACAUUUUCUGUAAAUAAUGGAUAAUCAUUUUAAAAAUUUUUAUUUUUAGUGCUGUUUUAACAAUGUAGAUAGAUCAUAAAUGUACUUGCUGAAUUCAAUCAUUUUU: 0.528 ratio
GGGACGCUUUGAUAUUAAAUUCGACAUAAAAAGCAGCUGAUUGUAAGCACAACUCUCUCCUAGCCAUUUAAAAAGGUAAAAAACAAAAAAGAAAACCUACUAGUCUUGAACAAACUGUCA: 1.25 ratio
GUCAUCUGAUUGGAUGAAGACCAUCCCAAGUUACAACCAAACAAACAGCUCCAUGGACUUUAGAAAUUACAUGAUGAGAGAUGAGAAUCUGGAACCACUGCCCCAAAACUGGGAAAUGGC: 0.628 ratio
GAGCUAAAGGAGUUAGCAUCUUUAUUUUUGUAUCAAAGAUAAAGGUUAUUUUGAAAUUAUUAGGAUUUUUACACAAUUCUGAAAUCUGUUGCUUUUGUAAACAAAUUGUUUGAUCUUAGU: 1.01 ratio
UUUGAGUUAGUUUUUCACAUUUUCUGUAAAUAAUGGAUAAUCUUUUUCAAGUUUACUUUUAAGUGCUGUUUUAACAAUGCGGACAGGCUAUAAAUGUACUUGCUGAAUUCAUUCAUUUUU: 0.485 ratio
CCCCUCUGAACCCCAUAUCUUCUGUUUCAUAGUGCAGAGUAUUCUCUUCAGUUAUGUUAUUAGUGGACUUGUUUUAAUUUUAGGGAAACUUUCAGUACAGAUACUGUGAGCUUACAUGGA: 1.11 ratio
AUAAAAAACCCCGAUUUUAGAUACUUAGGCUUUCAUUCCAGUUGGUUUUGUCUUCUUGUUUAGAUACCACUUAAAUUCUUGGCAUUUUAGUAAGAAAGCUACCUUUUUAUGGAUGUUAGC: 0.532 ratio
CUGAAGCUUUGUGUUUGGCUGCACCUGCGUAAGCUGCUACAAAUAGAAUAAAGAAUUUCAUAGCCUGUAUCUAUCAUUUAGAUGCAUGGAAAAAUGGGCUUUGCACACAAUGGGUUUGGA: 2.43 ratio

Series 4
Target: CCNE1, cyclin fold, Cln2 fusion (human)
Technique: yeast growth competition, sequencing
Matrix: yeast
Notes: weak parent motif
Reference: not given
Direction: higher = stronger binding
Measurement: normalised enrichment score
Starting sequence: CDC6 docking peptide (human); TLKGRRLVFDNQL
L7M: -0.0653
D10K: 0.0409
V8I: 0.828
V8A: -0.241
R5T: 0.846
T1F: -0.773
L2V: 0.705
F9N: -0.167
L2H: 0.276
V8F: 0.401
F9W: 0.404
K3Y: 0.772
F9A: 0.0761
D10F: 0.453

Series 5
Target: CRIPT, C-terminal peptide
Technique: DHFR complementation, deep sequencing
Matrix: yeast
Notes: single substitutions, model-inferred values
Reference: wild type
Direction: higher = weaker binding
Measurement: binding free energy change
Starting sequence: ERBIN, PDZ domain 1 (human); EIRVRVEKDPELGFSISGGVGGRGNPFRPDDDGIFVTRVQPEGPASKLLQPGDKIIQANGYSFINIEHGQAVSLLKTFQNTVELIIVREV; partner TKNYKQTSV
G19Y: 1.69 kcal/mol
S62C: 0.129 kcal/mol
G33V: 0.536 kcal/mol
Q70A: -0.0435 kcal/mol
N80H: 0.046 kcal/mol
R38T: -0.285 kcal/mol
D9F: 0.608 kcal/mol
E89V: -0.0104 kcal/mol
G18N: 1.48 kcal/mol
S17E: 1.31 kcal/mol
I2R: 0.0613 kcal/mol
P44N: 0.194 kcal/mol
L75P: 0.618 kcal/mol
P29L: 0.133 kcal/mol
V20W: -0.0123 kcal/mol
L74A: 0.0714 kcal/mol
E83S: 0.133 kcal/mol
S62Y: 0.0545 kcal/mol
E11G: 0.537 kcal/mol
N65S: 0.0199 kcal/mol

Series 6
Substance: PhoQ, residues 284 288 289 292 302 303 SSCLAV
Technique: Sort-seq
Refers to: YFP reporter
Matrix: E. coli
Notes: PhoQ-PhoP variant library
With: 10 µM Mg2+
Reference: high Mg2+ state
Direction: higher = stronger signaling
Measurement: fold induction
PhoP, residues 12 14 15 18 19 TQCLL (Escherichia coli, UniProt P23836): 12
PhoP, residues 12 14 15 18 19 VHTVL (Escherichia coli, UniProt P23836): 5.88
PhoP, residues 12 14 15 18 19 ICWRQ (Escherichia coli, UniProt P23836): 8.16

For quick reference, copied from above (series 5):
N65S: 0.0199 kcal/mol
Q70A: -0.0435 kcal/mol
E11G: 0.537 kcal/mol
L74A: 0.0714 kcal/mol
P44N: 0.194 kcal/mol
